Assay results pooled from the literature.
Each line is one published result; not all experiments were run side by side. Values joined by “and” are separate records of one study, mostly repeats; a detail may differ.
UCHL1: Ubiquitin carboxyl-terminal hydrolase isozyme L1 (UCHL1, Homo sapiens, UniProt P09936)
TOP2B: DNA topoisomerase 2-beta (TOP2B, Homo sapiens, UniProt Q02880)
ADRA2C: Alpha-2C adrenergic receptor (ADRA2C, Homo sapiens, UniProt P18825)
Voltage-dependent P/Q-type calcium channel subunit alpha-1A: Voltage-dependent P/Q-type calcium channel subunit alpha-1A (Homo sapiens, UniProt O00555)
T1: RNA aptamer (Homo sapiens); chain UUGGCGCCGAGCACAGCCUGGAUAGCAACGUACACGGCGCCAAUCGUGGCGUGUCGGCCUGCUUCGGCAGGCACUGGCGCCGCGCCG; chain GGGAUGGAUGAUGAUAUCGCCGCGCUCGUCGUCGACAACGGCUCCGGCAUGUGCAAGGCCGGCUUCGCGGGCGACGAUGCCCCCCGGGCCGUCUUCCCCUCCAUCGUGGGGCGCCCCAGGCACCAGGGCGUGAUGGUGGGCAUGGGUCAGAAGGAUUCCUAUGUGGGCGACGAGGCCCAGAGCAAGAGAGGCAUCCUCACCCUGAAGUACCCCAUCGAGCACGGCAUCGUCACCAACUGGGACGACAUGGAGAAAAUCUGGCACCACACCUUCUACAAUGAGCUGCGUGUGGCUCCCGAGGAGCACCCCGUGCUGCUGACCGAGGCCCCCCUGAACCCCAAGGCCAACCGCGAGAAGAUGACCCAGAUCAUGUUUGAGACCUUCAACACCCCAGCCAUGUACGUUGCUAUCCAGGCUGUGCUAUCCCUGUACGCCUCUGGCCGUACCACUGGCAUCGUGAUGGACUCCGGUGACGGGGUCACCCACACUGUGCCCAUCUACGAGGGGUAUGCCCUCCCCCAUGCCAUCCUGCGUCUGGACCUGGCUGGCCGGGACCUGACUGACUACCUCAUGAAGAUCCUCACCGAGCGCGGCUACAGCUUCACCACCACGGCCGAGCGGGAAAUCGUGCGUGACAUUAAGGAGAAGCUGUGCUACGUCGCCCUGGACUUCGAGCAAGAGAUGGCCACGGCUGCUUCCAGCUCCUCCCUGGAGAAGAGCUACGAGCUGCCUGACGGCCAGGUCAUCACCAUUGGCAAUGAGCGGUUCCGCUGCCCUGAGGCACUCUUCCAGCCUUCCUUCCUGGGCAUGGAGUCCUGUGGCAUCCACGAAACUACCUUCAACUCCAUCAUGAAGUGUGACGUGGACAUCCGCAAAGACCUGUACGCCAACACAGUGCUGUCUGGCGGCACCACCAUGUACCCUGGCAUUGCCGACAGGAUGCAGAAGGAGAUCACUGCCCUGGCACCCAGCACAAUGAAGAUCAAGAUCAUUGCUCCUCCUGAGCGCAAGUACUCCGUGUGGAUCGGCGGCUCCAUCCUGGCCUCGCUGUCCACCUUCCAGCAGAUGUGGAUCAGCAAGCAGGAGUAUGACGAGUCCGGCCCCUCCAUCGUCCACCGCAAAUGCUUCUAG

SMILES	target	test	system	setting	how to read	endpoint	result
O=C(NC1CCC1)c1ccc2nc(-c3cccc(NS(=O)(=O)NCCN4CCCCC4)c3)cn2c1	Phosphatidylinositol 4,5-bisphosphate 3-kinase catalytic subunit alpha isoform (PIK3CA, Homo sapiens, UniProt P42336, C420R)	enzyme activity		10 µM		remaining activity	100%
O=C(O)C1=CCNCC1	BEST1 (Homo sapiens, UniProt O76090)	whole-cell patch clamp	HEK293 transiently expressing channel	concentration not given, membrane potential -80 mV		current density	-44.8 pA/pF and -20.2 pA/pF and -22 pA/pF and -106 pA/pF and -16.1 pA/pF and -54.3 pA/pF
O=C1CCC(=O)N1CCS(=O)(=O)c1c(F)c(F)nc(N2CCCC2)c1F	UCHL1	covalent, intact protein LC-MS		12.5 µM		labelling	9.89%
CC(=C/C(=O)O)/C=C/C=C(\C)C1C=C2C(C)(C)CCCC2(C)O1 (stereo not shown)	Rhodopsin (RHO, Homo sapiens, UniProt P08100, T17M)	ER retention, immunostaining co-localization, refers to: opsin with calnexin	COS-7 transfected T17M	0.05 µM		Pearson correlation coefficient	0.72
N#CC(=Cc1ccccc1Cl)C(=O)Nc1ccc(Cl)cc1	UCHL1	covalent, intact protein LC-MS		12.5 µM		labelling	15.5%
Cc1nc(CSc2nc(SCc3ccc(C(C)C)cc3)nc(=O)[nH]2)cs1	TOP2B	decatenation		7.8 µM, replicate 2		decatenated DNA	100%
Cc1cc(Oc2ncccc2CN2CCN(Cc3ccccc3Cl)CC2)ccc1-c1c(C)c(=O)[nH]c(=O)n1C	ADRA2C	binding, radioligand binding		together with: [3H]rauwolscine	baseline: Ki alpha2B over Ki alpha2C	selectivity ratio	3
Cc1cc(-c2ccnc3[nH]cc(F)c23)cc(F)c1[C@@]1(O)[C@H](C)CN(C2CCS(=O)(=O)CC2)C[C@@H]1C	Serine/threonine-protein kinase LATS1 (LATS1, Homo sapiens, UniProt O95835)	ATP/ADP probe binding, KiNativ	HEK293T lysate	10 µM, Lys1 peptide ALYATKTLR		probe labelling inhibition	91.3%
CN(C(=O)n1cnc(-c2ccc[n+]([O-])c2)c1)C1CCCCC1	Fatty-acid amide hydrolase 1 (Faah, Rattus norvegicus, UniProt P97612)	enzyme activity	rat, brain	0.1 mg/kg, 8 h		maximum inhibition	92%
N#CC(=Cc1cccc2ccccc12)C(=O)NCc1ccccc1	UCHL1	covalent, intact protein LC-MS		12.5 µM		labelling	12.7%
CNCC[C@@H](Oc1ccccc1C)c1ccccc1	Voltage-dependent P/Q-type calcium channel subunit alpha-1A	ion current, antagonist	HEK293	30 µM		inhibition	89%
CCCCC[C@H](O)/C=C/[C@H]1C(=O)C[C@H](O)[C@@H]1C/C=C\CCCC(=O)O	Prostaglandin D2 receptor (PTGDR, Homo sapiens, UniProt Q13258, D262A)	agonist		1.25 µM		activation	88.3%
CS(=O)(=O)NCCc1ccc(C(=O)CCl)cc1	UCHL1	covalent, intact protein LC-MS		12.5 µM		labelling	10.1%
Cc1oc(C)c(S(=O)(=O)NCC(F)(F)c2ccc(Br)cc2)c1C(=O)O	malate dehydrogenase	enzyme activity, inhibitor		200 µM, pH 7.0, 1% DMSO, aggregation counter-screen		remaining activity	105%
N#Cc1c(NC(=O)CCl)oc(-c2cccs2)c1-c1cccs1	UCHL1	covalent, intact protein LC-MS		12.5 µM		labelling	12%
C[C@H](NCc1ccc(OCc2ccccc2F)cc1)C(N)=O	Voltage-dependent P/Q-type calcium channel subunit alpha-1A	ion current, antagonist	HEK293	30 µM		inhibition	77%
CCN(CCO)CCCC(C)Nc1ccnc2cc(Cl)ccc12 (stereo not shown)	Sodium channel protein type 5 subunit alpha (SCN5A, Homo sapiens, UniProt Q14524)	sodium current, whole-cell patch clamp		100 µM, without ATX-II		half-inactivation voltage (V1/2)	-89.1 mV and -80 mV and -95.8 mV
O=C(NCCF)c1cncn1-c1ccc(-c2ccc(F)c(F)c2)cc1	UCHL1	covalent, intact protein LC-MS		12.5 µM		labelling	13.1%
COc1cccc2c1C(=O)c1c(O)c3c(c(O)c1C2=O)C[C@@](O)(C(=O)CO)C[C@@H]3O[C@H]1C[C@H](N)[C@H](O)[C@H](C)O1	DNA topoisomerase I (calf thymus)	enzyme activity, inhibitor	MDA-MB-231	50, 100, 500 ppm, 30 min, 37 °C		geometric mean inhibition	75.9%

SMILES	target	test	system	setting	how to read	endpoint	result
C=CC(=O)N1CCC(COCC(=O)N2CCN(c3nc(-c4cnc(N)nc4C(F)F)nc(N4CCOC[C@@H]4C)n3)CC2)CC1	Hepatocyte growth factor receptor (MET, Homo sapiens, UniProt P08581)	KINOMEscan		1 µM	baseline: DMSO control	remaining binding	94%
NCCS(=O)(=O)O	Sodium- and chloride-dependent taurine transporter (SLC6A6, Homo sapiens, UniProt P31641, Y138A)	binding, microscale thermophoresis		3.91 µM, room temperature, together with: 50 nM labelled protein	higher = more binding	normalised MST signal	0.0327
NC(=O)c1ccc[n+]([C@@H]2O[C@H](COP(=O)([O-])OP(=O)(O)OC[C@H]3O[C@@H](n4cnc5c(NCCNC(=O)CCCCCNC(=O)CCCCCNC(=O)CCCC[C@@H]6SC[C@@H]7NC(=O)N[C@@H]76)ncnc54)[C@H](O)[C@@H]3O)[C@@H](O)[C@H]2O)c1	Protein mono-ADP-ribosyltransferase PARP12 (PARP12, Homo sapiens, UniProt Q9H0J9)	substrate, DELFIA auto-modification				apparent Km	12 µM
CCCOc1ccc(NS(=O)(=O)c2cc(Cl)cc(Cl)c2O)cc1F	malate dehydrogenase	enzyme activity, inhibitor		200 µM, pH 7.0, 1% DMSO, aggregation counter-screen		remaining activity	148%
Nc1nc2c(ncn2[C@@H]2O[C@H](COP(=O)(O)O)[C@@H](O)[C@H]2O)c(=O)[nH]1	GUK1 (Homo sapiens, UniProt Q16774)	enzyme activity, NADH-coupled		62.5 µM, together with: NaCl 50 mM		reaction velocity	0.0541 µM/s and 0.0599 µM/s and 0.0674 µM/s
Cc1cc(Oc2ncccc2CN2CCN(c3cccc(Cl)c3Cl)CC2)ccc1-c1c(C)c(=O)[nH]c(=O)n1C	ADRA2C	binding, radioligand binding		together with: [3H]rauwolscine	baseline: Ki alpha2A over Ki alpha2C	selectivity ratio	10
CC[C@H]1OC(=O)[C@H](C)[C@@H](O[C@H]2C[C@@](C)(OC)[C@@H](O)[C@H](C)O2)[C@H](C)[C@@H](O[C@@H]2O[C@H](C)C[C@H](N(C)C)[C@H]2O)[C@](C)(OC)C[C@@H](C)C(=O)[C@H](C)[C@@H](O)[C@]1(C)O	uncharacterized protein (Saccharopolyspora erythraea, UniProt A4F7P9)			concentration not given, pH 7.6, 20 °C, together with: p-nitrophenyl-β-D-glucopyranoside		apparent Km	3320 µM
CCC1(O)CCCN(C(=O)c2ccc(-c3ccc(F)c(NC(=O)CCl)c3)cc2)C1 (stereo not shown)	DNA dC->dU-editing enzyme APOBEC-3B, C-terminal domain (Homo sapiens, UniProt Q9UH17)	covalent modifier, intact protein mass spectrometry, refers to: adduct +25721 Da		250 µM, 3 h, 10-fold molar excess		protein adduct	76.5%
CC[C@@H]1[C@H](F)C(=O)N[C@@H]1COc1nccc2cc(C(N)=O)c(OC)cc12	Ephrin type-A receptor 7 (EPHA7, Homo sapiens, UniProt Q15375)	ATP probe binding, KiNativ profiling, refers to: activation loop probe site	THP-1 cell lysate	0.04 mM		inhibition	21.7%
CC[C@H](C)[C@H](NC(=O)[C@H](CO)NC(=O)[C@@H](N)CC(C)C)C(=O)N[C@H](C(=O)N[C@@H](CC(N)=O)C(=O)N[C@@H](Cc1ccccc1)C(=O)N[C@@H](CCC(=O)O)C(=O)N[C@@H](CCCCN)C(=O)N[C@@H](CC(C)C)C(=O)O)[C@@H](C)CC	Endoplasmic reticulum aminopeptidase 2 (ERAP2, Homo sapiens, UniProt Q6P179)	substrate				Km	10.4 µM
N[C@@H](Cc1ccc(O)c(O)c1)C(=O)O	Voltage-dependent P/Q-type calcium channel subunit alpha-1A	ion current, antagonist, automated patch clamp				IC30	> 30 µM
CC(Cl)C(=O)NCc1ccccc1S(=O)(=O)N1CCOCC1 (stereo not shown)	UCHL1	covalent, intact protein LC-MS		12.5 µM		labelling	13.5%
O=c1nc(SCc2cc(F)cc(C(F)(F)F)c2)nc(SCc2ccc3sccc3c2)[nH]1	TOP2B	decatenation		31.25 µM, replicate 2		decatenated DNA	0%
Nc1ncnc2c1ncn2[C@@H]1O[C@H](COP(=O)(O)CP(=O)(O)OP(=O)(O)O)[C@@H](O)[C@H]1O	P2X purinoceptor 1 (P2RX1, Homo sapiens, UniProt P51575, R139P)	calcium influx		1 µM	baseline: ionomycin response	calcium influx	61.6% and 66.9% and 53.2%
CN(CCO)c1cc2sc(/C=C(\C#N)c3ccc(C#N)cc3)cc2s1	T1, RNA aptamer (Homo sapiens)	fluorescence activation				binding	binds
O=c1nc(SCc2cc(F)cc(C(F)(F)F)c2)nc(SCc2ccc3nc(Cl)ccc3c2)[nH]1	TOP2B	decatenation		125 µM, replicate 1		decatenated DNA	0.23%
C[C@@H](O)[C@H](N)C(=O)O	ilvA (Escherichia coli, UniProt P04968)	2-ketobutyrate formation, substrate, steady-state kinetics				Km	7300 µM
CC(Cl)C(=O)N[C@@H]1CN(Cc2ccccc2)C[C@H]1c1ccccc1 (stereo partly shown)	UCHL1	covalent, intact protein LC-MS		12.5 µM		labelling	18.6%

For quick reference, copied from above:
SMILES	target	test	system	setting	how to read	endpoint	result
COc1cccc2c1C(=O)c1c(O)c3c(c(O)c1C2=O)C[C@@](O)(C(=O)CO)C[C@@H]3O[C@H]1C[C@H](N)[C@H](O)[C@H](C)O1	DNA topoisomerase I (calf thymus)	enzyme activity, inhibitor	MDA-MB-231	50, 100, 500 ppm, 30 min, 37 °C		geometric mean inhibition	75.9%
C=CC(=O)N1CCC(COCC(=O)N2CCN(c3nc(-c4cnc(N)nc4C(F)F)nc(N4CCOC[C@@H]4C)n3)CC2)CC1	Hepatocyte growth factor receptor (MET, Homo sapiens, UniProt P08581)	KINOMEscan		1 µM	baseline: DMSO control	remaining binding	94%
NCCS(=O)(=O)O	Sodium- and chloride-dependent taurine transporter (SLC6A6, Homo sapiens, UniProt P31641, Y138A)	binding, microscale thermophoresis		3.91 µM, room temperature, together with: 50 nM labelled protein	higher = more binding	normalised MST signal	0.0327
NC(=O)c1ccc[n+]([C@@H]2O[C@H](COP(=O)([O-])OP(=O)(O)OC[C@H]3O[C@@H](n4cnc5c(NCCNC(=O)CCCCCNC(=O)CCCCCNC(=O)CCCC[C@@H]6SC[C@@H]7NC(=O)N[C@@H]76)ncnc54)[C@H](O)[C@@H]3O)[C@@H](O)[C@H]2O)c1	Protein mono-ADP-ribosyltransferase PARP12 (PARP12, Homo sapiens, UniProt Q9H0J9)	substrate, DELFIA auto-modification				apparent Km	12 µM
CCCOc1ccc(NS(=O)(=O)c2cc(Cl)cc(Cl)c2O)cc1F	malate dehydrogenase	enzyme activity, inhibitor		200 µM, pH 7.0, 1% DMSO, aggregation counter-screen		remaining activity	148%
Nc1nc2c(ncn2[C@@H]2O[C@H](COP(=O)(O)O)[C@@H](O)[C@H]2O)c(=O)[nH]1	GUK1 (Homo sapiens, UniProt Q16774)	enzyme activity, NADH-coupled		62.5 µM, together with: NaCl 50 mM		reaction velocity	0.0541 µM/s and 0.0599 µM/s and 0.0674 µM/s
